# Measurements from different studies.
# Compare with care: the assays were run in different laboratories. “And” joins repeats or separate records; there may be more than shown. ± marks the error that the study gave.
# Sequence of UniProt Q16512 (whole entry, looked up): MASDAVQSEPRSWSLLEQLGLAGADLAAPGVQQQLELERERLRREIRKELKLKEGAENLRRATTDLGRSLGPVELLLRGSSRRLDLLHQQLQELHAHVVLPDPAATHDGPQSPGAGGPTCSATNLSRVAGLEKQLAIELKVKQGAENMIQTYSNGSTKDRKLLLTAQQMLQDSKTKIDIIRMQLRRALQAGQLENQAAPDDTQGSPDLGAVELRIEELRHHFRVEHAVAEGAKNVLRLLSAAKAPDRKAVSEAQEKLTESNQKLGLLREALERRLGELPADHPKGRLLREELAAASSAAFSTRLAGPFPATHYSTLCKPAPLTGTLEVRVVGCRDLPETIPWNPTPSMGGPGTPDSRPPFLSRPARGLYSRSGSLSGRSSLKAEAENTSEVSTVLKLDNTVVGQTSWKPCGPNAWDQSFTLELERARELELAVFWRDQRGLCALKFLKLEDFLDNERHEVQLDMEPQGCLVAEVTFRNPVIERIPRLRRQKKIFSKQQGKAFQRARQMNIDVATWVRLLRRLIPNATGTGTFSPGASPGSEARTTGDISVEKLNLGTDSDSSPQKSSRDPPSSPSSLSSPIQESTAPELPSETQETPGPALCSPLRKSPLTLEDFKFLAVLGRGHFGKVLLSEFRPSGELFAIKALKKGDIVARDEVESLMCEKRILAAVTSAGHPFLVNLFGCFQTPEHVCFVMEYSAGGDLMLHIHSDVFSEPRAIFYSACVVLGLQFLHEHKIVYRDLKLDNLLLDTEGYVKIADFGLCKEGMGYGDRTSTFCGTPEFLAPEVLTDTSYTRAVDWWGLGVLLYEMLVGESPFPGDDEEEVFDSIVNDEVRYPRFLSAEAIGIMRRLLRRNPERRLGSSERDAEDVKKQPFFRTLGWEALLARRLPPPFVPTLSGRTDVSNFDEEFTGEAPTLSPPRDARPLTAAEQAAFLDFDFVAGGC
# Sequence of UniProt P43250 (whole entry, looked up): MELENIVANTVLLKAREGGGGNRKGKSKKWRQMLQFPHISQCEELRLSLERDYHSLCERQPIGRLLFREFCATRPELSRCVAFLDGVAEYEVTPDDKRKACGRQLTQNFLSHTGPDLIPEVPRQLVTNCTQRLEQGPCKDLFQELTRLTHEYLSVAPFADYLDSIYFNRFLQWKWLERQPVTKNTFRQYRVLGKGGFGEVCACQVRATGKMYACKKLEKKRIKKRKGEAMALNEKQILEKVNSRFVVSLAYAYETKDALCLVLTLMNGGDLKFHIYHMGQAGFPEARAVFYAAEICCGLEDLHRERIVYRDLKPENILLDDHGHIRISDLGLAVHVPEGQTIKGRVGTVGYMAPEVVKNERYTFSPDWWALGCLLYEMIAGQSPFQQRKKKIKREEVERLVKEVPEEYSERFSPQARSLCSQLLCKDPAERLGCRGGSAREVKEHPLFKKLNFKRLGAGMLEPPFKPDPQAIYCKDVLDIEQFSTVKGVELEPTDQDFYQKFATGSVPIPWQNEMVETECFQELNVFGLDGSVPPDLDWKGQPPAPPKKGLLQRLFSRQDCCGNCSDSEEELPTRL
Compound,target or system,assay,system,conditions,how to read,quantity,value
c1ccc2c(c1)cc1ccc3cccc4ccc2c1c34,,,fresh water,"12 (unit not given), 20 °C, SSP sampler, 100 µm",,log K(PDMS-water),5.17 ± 0.02
CN(C)C(=O)c1cc2cnc(Nc3ccc(N4CCNCC4)cn3)nc2n1C1CCCC1,,"refers to: Renal toxicity, AESI","human, HR+/HER2− advanced breast cancer","oral, dose not given, all grades, CTCAE v4.03",,patients with adverse event,5.4%
CC(C)CC(=O)OC[C@H]1O[C@@](C#N)(c2ccc3c(N)ncnn23)[C@H](O)[C@@H]1O,,,human plasma,"0.9 to 90 µM, mean over concentrations",,unbound fraction,0.192
Clc1cc(Cl)c(-c2cc(Cl)c(Cl)cc2Cl)cc1Cl,,,fresh water,"20 °C, SSP sampler, 100 µm",,log K(PDMS-water),6.37 ± 0.04
N.N.[Cl][Pt][Cl],,,mouse xenograft model,"dose not given, day 2",,body weight,24 g and 25 g and 26 g
CC(C)N(CCc1c[nH]c2cccc(OC(=O)CCCC(=O)O)c12)C(C)C.Cl,,,"male beagle dog, plasma","intravenous, 1 mg/kg",,half-life,15.3 min
CN[C@H]1CC[C@@H](c2ccc(Cl)c(Cl)c2)c2ccccc21,,,"CD-1 mouse, male, lung","intraperitoneal, 10 mg/kg",,elimination rate constant,5.83e-05 s⁻¹
O=C(O)CCC(CP(=O)(O)O)C(=O)O (stereo not shown),,,rat plasma,"0.3 µg/mL, 4 h, room temperature, bench-top stability",,measured concentration,0.326 ± 0.009 µg/mL
Clc1ccc(-c2cc(Cl)c(Cl)c(Cl)c2)cc1Cl,,,fresh water,"20 °C, S30-2 sampler, 30 µm",,log K(PDMS-water),5.99 ± 0.04
C=CC(=O)Nc1cc(Nc2nccc(Nc3cc(Cl)c(F)cc3C(C)(C)O)n2)c(OC)cc1N1CC[C@@H](N(C)C)C1,,,human patients,"oral, 100 mg, treatment-emergent adverse events",,patients with nausea,33.3%
OC(c1cc(C(F)(F)F)nc2c(C(F)(F)F)cccc12)C1CCCCN1 (stereo not shown),Plasmodium falciparum,,3D7,,,IC50,15 nM
O[C@H]1CCCN[C@@H]1CCCn1cnc2c(Cl)c(Cl)ccc21,,,"healthy humans, plasma","oral, 150 mg, added: pirfenidone 600 mg",,CL/F at steady state,2270 mL/min
C[C@@H](NC(=O)N1C(=O)[C@H](Cc2ccnc(N)c2)[C@H]1C(=O)O)C1CCCCC1,,,healthy Chinese adult volunteers,"continuous intravenous infusion, dose not given, 5.0 days, CTCAE 5.0, all doses",,drug-related decreased neutrophil,0%
N=C(N)NCCC[C@@H](NC(=O)[C@@H](N)Cc1ccccc1)C(=O)N[C@@H](Cc1ccccc1)C(=O)N[C@@H](CCCCN)C(N)=O,,,"early Huntington's disease patients, plasma","subcutaneous, 5 mg daily, day 7, median",,AUC(0-inf),882 ng·h/mL
COc1ccc(N2C(=O)N(c3c(C)cccc3Cl)Cc3cnc(Nc4ccc(C5CCN(C)CC5)cc4OC)nc32)nc1,"GRK6 (Homo sapiens, UniProt P43250)",kinase activity,,0.5 µM,,inhibition,-4.41%
CC(C)C[C@H](NC(=O)[C@H](Cc1ccccc1)NC(=O)[C@H](Cc1ccccc1)NC(=O)Cc1ccc(-c2ccccc2)cc1)C(=O)N[C@@H](CCCCN)C(=O)N[C@@H](CCCNC(=N)N)C(=O)N[C@H](C(=O)N[C@@H](Cc1c[nH]c2ccccc12)C(=O)N[C@@H](CCCCN)C(=O)N[C@@H](CCCNC(=N)N)C(=O)O)C(C)C,,,monkey liver microsomes,,,hepatic clearance,41.2 mL/min/kg
Cc1cc2ncn(-c3ccc(OC(C)(C)C)cc3)c2cc1-c1ccc(OC(C)(C)O)cc1,,,,pH 7.4,,aqueous solubility,> 100 µM
COc1ccnc(C(=O)N[C@H]2COC(=O)[C@H](Cc3ccccc3)[C@@H](OC(=O)C(C)C)[C@H](C)OC2=O)c1OCOC(=O)C(C)C,,soil adsorption,soil,"pH 5.9, organic carbon 0.9 %",,KFoc,2250 mL/g
CN1CCN(c2ccc(Nc3nccc(-c4ccnc(Cl)c4)n3)cc2C(F)(F)F)CC1,,,zebrafish embryos,"25 µM, 5 d",,toxicity,11 ± 17%
c1cc2ccc3ccc4ccc5cccc6c(c1)c2c3c4c56,,,fresh water,"12 (unit not given), 20 °C",,log K(PDMS-water),5.51 ± 0.09
CCOc1cc(Oc2ccc(C(F)(F)F)cc2Cl)ccc1[N+](=O)[O-],,,"rat, male","125 mg/kg, 4 days",,final body weight,95.3 ± 2.1 g
COc1ccc(-c2c(-c3ccc(C#N)c(F)c3)nc(N3CCC(N)CC3)n(C)c2=O)cc1F,,refers to: Fatigue/asthenia,neuroendocrine neoplasm patients,"oral, 60 mg, grade 3 to 4, dose expansion",,treatment-related adverse event incidence,0%
CC(=O)N(C)[C@H]1CCN(C(=O)c2cnc3c(c2)C[C@](C)(c2ccc(F)cc2)N3)C1,,,healthy male humans,"oral, dose not given, multiple rising dose, added: 60 mg midazolam once daily",,subjects with AEs leading to discontinuation,12.5%
NC(=O)[C@H]1CCN(c2ncnc(N)c2F)C[C@@H]1N1CCC[C@@H](Nc2cc(Cl)cc(C(F)(F)F)c2)C1=O,,,B-cell malignancy patients,"oral, 410 mg twice daily, dose",,grade ≥3 thrombocytopenia,0%
CN1CC[C@@H](c2c(O)cc(O)c3c(=O)cc(-c4ccc(C(F)(F)F)cc4Cl)oc23)[C@@H]1CO,,refers to: Sepsis,B-cell malignancies,"oral, 200 mg, intermittent dosing",,patients with adverse event,0%
CC(C)C[C@@H]1NC(=O)CNC(=O)[C@H](CC(N)=O)NC(=O)[C@H](CCCNC(=N)N)NC(=O)[C@H]([C@@H](C)O)NC(=O)[C@@H]2CSSC[C@@H]3NC(=O)[C@H](CCCCN)NC(=O)CNC(=O)CNC(=O)[C@H](C(C)C)NC(=O)[C@@H]4CSSC[C@H](NC(=O)[C@H]([C@@H](C)O)NC(=O)[C@H](CSSC[C@H](NC(=O)[C@H](C(C)C)NC(=O)[C@@H]5CCCN5C1=O)C(=O)NCC(=O)N[C@@H](CCC(=O)O)C(=O)N[C@@H]([C@@H](C)O)C(=O)N4)NC(=O)CNC(=O)[C@@H]1CCCN1C(=O)[C@H]([C@@H](C)O)NC(=O)[C@H](CC(N)=O)NC3=O)C(=O)N[C@@H](CO)C(=O)N[C@@H](Cc1c[nH]c3ccccc13)C(=O)N1CCC[C@H]1C(=O)N[C@@H](C(C)C)C(=O)N2,,HPLC,ammonium bicarbonate,"180 µM, 14 days, pH 9.0, 25 °C, deamidation stability",,remaining peptide,87.9 ± 0.5%
COc1ccc2nc3cc(Cl)ccc3c(Nc3cc(CN4CCCC4)c(O)c(CN4CCCC4)c3)c2n1,,,"mouse, blood","intraperitoneal, 57 mg/kg",,haematocrit,36.7%
O=C(Nc1ccccc1)C1CCN(C(=O)Oc2cccnc2)CC1,,Bond-Lader VAS,healthy women,"oral, 20 mg","relative to: pre-dose baseline, direction not given",change in withdrawn–gregarious score,1.6
CC1(C)[C@H](C(=O)O[C@H](C#N)c2cccc(Oc3ccccc3)c2)[C@@H]1C=C(Br)Br,,,pooled human liver microsomes,,,CLint,0.892 mL/min/mg protein
CC/C(=C(\c1ccccc1)c1ccc(OCCN(C)C)cc1)c1ccccc1,,,"CD-1 mouse, male, lung","intraperitoneal, 30 mg/kg",,elimination rate constant,2.68e-05 s⁻¹
Cc1scc2c1N(C(=O)CN1CCN(C)CC1)c1ccccc1NC2=O,Plasmodium falciparum,,GB4,,,IC50,2000 nM
COc1cc2c(Oc3ccc4[nH]c(C)cc4c3F)ccnc2cc1OCC1(N)CC1,,,paediatric recurrent refractory sarcoma,10 mg,,Headache incidence,25%
C[C@]1(CO)Cc2ncn(-c3ccc(C#N)c(Cl)c3)c2C(=O)O1,,,"human, plasma","20 mg once daily, fasted",,tmax at steady state,1 h
C[C@H]1CN(c2n[nH]c3nc(N[C@H]4CC[C@H](NS(=O)(=O)CCC(F)(F)F)CC4)ncc23)CCO1,"PKN1 (Homo sapiens, UniProt Q16512)","inhibitor, Kinobeads competition profiling",,20 µM,relative to: vehicle,relative abundance,1.09
CC(=O)c1c(C)c2cnc(Nc3ccc(C4CCN(CCS(C)(=O)=O)CC4)cn3)nc2n(C2CCCC2)c1=O,,,human plasma,,,plasma stability t1/2,> 400 min
O=S(=O)(Nc1ccccc1)c1ccc(NC(=S)Nc2ccccc2)cc1,,,"female mouse, blood","oral, 20 mg/kg daily, 14 days",,potassium level,9.6 mmol/L
CC(C)[C@@H]1NC(=O)CNC(=O)[C@H](CC(N)=O)NC(=O)[C@H](CCCNC(=N)N)NC(=O)[C@H](Cc2ccc(O)cc2)NC(=O)[C@H](C(C)C)NC(=O)[C@@H](NC(=O)[C@@H](NC(=O)[C@H](CC(N)=O)NC(=O)[C@H](Cc2c[nH]c3ccccc23)NC(=O)[C@H](C)NC(=O)[C@H](Cc2ccccc2)NC(=O)CN)C(C)C)CSSC[C@@H](C(=O)N[C@@H](Cc2cnc[nH]2)C(=O)N[C@@H](CCCNC(=N)N)C(=O)N[C@@H](CCCNC(=N)N)C(=O)N[C@@H](C)C(=O)N[C@@H](CC(N)=O)C(N)=O)NC(=O)[C@H](C(C)C)NC(=O)[C@H](CCCNC(=N)N)NC1=O,,,"ICR mice, serum","intraperitoneal, 10 mg/kg, day 5",,creatinine,86.4 ± 2.47 µmol/L
CCc1ccc(CC/C=C/c2ccc3c(c2)C(=O)CC3)cc1,,,"Sprague-Dawley rat, female","oral, 120 mg/kg/day, 14 days",,Glucose,5.97 mM
CO[C@H]1C[C@@H]2CC[C@@H](C)[C@@](O)(O2)C(=O)C(=O)N2CCCC[C@H]2C(=O)O[C@H]([C@H](C)C[C@@H]2CC[C@@H](OC(=O)NCCOCCOCCOCCOCCOCCOCCOCCOCCC(=O)N3CCc4cc(Cn5nc(-c6ccc7oc(N)nc7c6)c6c(N)ncnc65)ccc4C3)[C@H](OC)C2)C[C@@H](O)[C@H](C)/C=C(\C)[C@@H](O)[C@@H](OC)C(=O)[C@H](C)C[C@H](C)/C=C/C=C/C=C/1C,,,patients with advanced solid tumours,"intravenous, dose not given, grade ≥3",,incidence of Headache TRAE,0%
[O-][S+]1CCc2nc(N3CCC(c4ncc(Cl)cn4)CC3)nc(NC3(CO)CCC3)c21 (stereo not shown),,refers to: oral hypoaesthesia,healthy male humans,36 mg single dose,,adverse event incidence,0%
O=C(Nc1ccccc1)C1CCN(C(=O)Oc2cccnc2)CC1,,refers to: balance disorder,healthy female humans,"concentration not given, safety set, all doses pooled",,TEAE incidence,8%
CN(C(=O)n1cnc(-c2ccc[n+]([O-])c2)c1)C1CCCCC1,,,"Wistar rat, cerebellum","oral, 10 mg/kg, 24 h, single dose",,concentration,17.3 ± 0.4 ng/g
C[C@@H]1NC(=O)[C@H](CCCCNC(=O)CO/N=C/C(=O)NCCCC[C@@H]2NC(=O)[C@@H](Cc3ccccc3)NC(=O)[C@H](CC(=O)O)NC(=O)CNC(=O)[C@H](CCCNC(=N)N)NC2=O)NC(=O)CNC(=O)[C@@H]2CCCN2C(=O)[C@H](CCCCNC(=O)CO/N=C/C(=O)NCCCC[C@@H]2NC(=O)[C@@H](Cc3ccccc3)NC(=O)[C@H](CC(=O)O)NC(=O)CNC(=O)[C@H](CCCNC(=N)N)NC2=O)NC(=O)[C@H](CCCCNC(=O)CN2CCCNCCNCCCNCC2)NC(=O)[C@H](CCCCNC(=O)CO/N=C/C(=O)NCCCC[C@@H]2NC(=O)[C@@H](Cc3ccccc3)NC(=O)[C@H](CC(=O)O)NC(=O)CNC(=O)[C@H](CCCNC(=N)N)NC2=O)NC(=O)CNC(=O)[C@@H]2CCCN2C(=O)[C@H](CCCCNC(=O)CO/N=C/C(=O)NCCCC[C@@H]2NC(=O)[C@@H](Cc3ccccc3)NC(=O)[C@H](CC(=O)O)NC(=O)CNC(=O)[C@H](CCCNC(=N)N)NC2=O)NC1=O [copper-64 labelled],,,"normal mice, stomach","intravenous, 0.74 MBq, 24 h post-injection",,tissue uptake,1.4 ± 0.17 %ID/g
